{"data": "Published values gathered from unrelated publications", "note": "Every numbered part comes from another study and shows a few of its results, in no order. Values joined by “and” are separate records of one study, mostly repeats; a detail may differ.", "UniProt P35372, sequence (whole entry, looked up)": "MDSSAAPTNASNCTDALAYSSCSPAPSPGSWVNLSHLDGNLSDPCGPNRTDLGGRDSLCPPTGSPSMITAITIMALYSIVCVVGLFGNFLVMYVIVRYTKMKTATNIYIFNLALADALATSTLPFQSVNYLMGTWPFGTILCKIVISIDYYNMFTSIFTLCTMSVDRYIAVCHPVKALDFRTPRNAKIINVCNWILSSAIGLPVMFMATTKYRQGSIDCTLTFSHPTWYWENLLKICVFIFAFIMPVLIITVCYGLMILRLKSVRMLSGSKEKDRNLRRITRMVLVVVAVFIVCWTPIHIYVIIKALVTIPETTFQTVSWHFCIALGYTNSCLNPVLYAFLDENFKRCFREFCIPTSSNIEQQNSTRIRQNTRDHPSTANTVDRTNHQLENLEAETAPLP", "UniProt P21918, sequence (whole entry, looked up)": "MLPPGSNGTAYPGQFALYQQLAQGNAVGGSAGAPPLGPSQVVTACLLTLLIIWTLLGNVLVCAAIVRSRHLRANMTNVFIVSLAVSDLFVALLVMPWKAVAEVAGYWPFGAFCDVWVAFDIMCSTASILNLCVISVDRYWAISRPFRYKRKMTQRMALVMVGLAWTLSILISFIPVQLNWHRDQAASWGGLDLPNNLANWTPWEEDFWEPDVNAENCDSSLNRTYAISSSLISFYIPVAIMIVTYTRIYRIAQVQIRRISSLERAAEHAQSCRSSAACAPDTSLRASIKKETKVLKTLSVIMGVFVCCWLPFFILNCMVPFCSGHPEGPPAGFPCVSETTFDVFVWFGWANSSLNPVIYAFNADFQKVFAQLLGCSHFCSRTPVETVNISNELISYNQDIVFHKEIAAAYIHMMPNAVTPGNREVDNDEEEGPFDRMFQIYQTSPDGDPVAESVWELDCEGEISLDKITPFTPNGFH", "UniProt P41145, sequence (whole entry, looked up)": "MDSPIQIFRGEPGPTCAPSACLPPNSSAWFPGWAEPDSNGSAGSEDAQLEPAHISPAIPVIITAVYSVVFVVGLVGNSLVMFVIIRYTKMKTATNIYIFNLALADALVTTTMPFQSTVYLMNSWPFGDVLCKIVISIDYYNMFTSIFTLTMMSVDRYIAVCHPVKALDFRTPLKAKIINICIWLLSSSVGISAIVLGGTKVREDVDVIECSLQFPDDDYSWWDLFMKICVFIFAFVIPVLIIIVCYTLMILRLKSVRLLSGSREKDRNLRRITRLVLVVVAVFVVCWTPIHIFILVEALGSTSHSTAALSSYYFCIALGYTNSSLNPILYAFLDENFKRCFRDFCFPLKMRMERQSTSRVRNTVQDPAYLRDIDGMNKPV"}
{"data": "Set 1", "target": "Eukaryotic initiation factor 4A-I (EIF4A1, Homo sapiens, UniProt P60842)", "effect on": "RNA clamping", "technique": "fluorescence polarization", "concentration": "concentration not given", "notes": "mean of two replicates", "added": "FAM-labelled poly r(AG)8 RNA", "UniProt P60842, sequence (whole entry, looked up)": "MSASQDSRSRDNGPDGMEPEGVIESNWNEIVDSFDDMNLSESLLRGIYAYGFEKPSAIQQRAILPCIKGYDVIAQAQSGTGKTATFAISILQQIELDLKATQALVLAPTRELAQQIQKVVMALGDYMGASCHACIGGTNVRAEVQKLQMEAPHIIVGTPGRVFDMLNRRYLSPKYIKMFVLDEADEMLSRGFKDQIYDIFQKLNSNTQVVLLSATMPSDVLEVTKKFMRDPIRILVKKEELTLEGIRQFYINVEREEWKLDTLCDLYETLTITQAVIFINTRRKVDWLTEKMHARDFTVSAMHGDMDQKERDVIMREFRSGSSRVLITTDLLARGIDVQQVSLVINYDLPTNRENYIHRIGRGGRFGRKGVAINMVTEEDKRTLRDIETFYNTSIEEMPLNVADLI"}
{"SMILES": "COc1ccc([C@@]23Oc4cc(OC)cc(OC)c4[C@]2(O)c2nc4n(c(=O)c2[C@@H]3c2ccccc2)CCC4)cc1", "fluorescence polarization change": "30.2 mP"}
{"SMILES": "COC(=O)[C@H]1[C@@H](O)[C@@]2(O)c3c(OC)cc(OC)cc3O[C@@]2(c2ccc(OC)cc2)[C@@H]1c1ccccc1", "fluorescence polarization change": "70.9 mP and 30.8 mP"}
{"SMILES": "COC(=O)[C@H]1[C@@H](c2ccccc2)[C@]2(c3ccc(OC)cc3)Oc3cc(OC)cc(OC)c3[C@@]1(O)C2=O", "fluorescence polarization change": "4.5 mP"}
{"SMILES": "COc1ccc([C@@]23Oc4cc(OC)cc(OC)c4[C@]2(O)c2nc(-c4ccccc4)[nH]c(=O)c2[C@@H]3c2ccccc2)cc1", "fluorescence polarization change": "12.9 mP"}
{"SMILES": "COc1ccc(-c2nc3c(c(=O)[nH]2)[C@H](c2ccccc2)[C@@]2(c4ccc(OC)cc4)Oc4cc(OC)cc(OC)c4[C@@]32O)cc1", "fluorescence polarization change": "31.9 mP"}
{"data": "Set 2", "Structure (SMILES)": "FC(F)(F)c1ccc2c(c1)nc(-c1cccnc1)n2C1CC1", "effect on": "cell-free assay", "concentration": "10 µM"}
{"target": "OPRD1 (Homo sapiens, UniProt P41143)", "inhibition [%]": -9.33}
{"target": "OPRK1 (Homo sapiens, UniProt P41145)", "inhibition [%]": -1.84}
{"target": "DRD5 (Homo sapiens, UniProt P21918)", "inhibition [%]": 22.5}
{"target": "HTR2A (Homo sapiens, UniProt P28223)", "inhibition [%]": 4.15}
{"target": "CHRM1 (Homo sapiens, UniProt P11229)", "inhibition [%]": -7.11}
{"target": "CHRM3 (Homo sapiens, UniProt P20309)", "inhibition [%]": -1.22}
{"target": "OPRM1 (Homo sapiens, UniProt P35372)", "inhibition [%]": -2.5}
{"data": "Set 3", "target": "Calcium/calmodulin-dependent protein kinase type II subunit alpha (CAMK2A, Homo sapiens, UniProt Q9UQM7)", "effect on": "enzyme activity", "action": "inhibitor", "concentration": "10 µM", "UniProt Q9UQM7, sequence (whole entry, looked up)": "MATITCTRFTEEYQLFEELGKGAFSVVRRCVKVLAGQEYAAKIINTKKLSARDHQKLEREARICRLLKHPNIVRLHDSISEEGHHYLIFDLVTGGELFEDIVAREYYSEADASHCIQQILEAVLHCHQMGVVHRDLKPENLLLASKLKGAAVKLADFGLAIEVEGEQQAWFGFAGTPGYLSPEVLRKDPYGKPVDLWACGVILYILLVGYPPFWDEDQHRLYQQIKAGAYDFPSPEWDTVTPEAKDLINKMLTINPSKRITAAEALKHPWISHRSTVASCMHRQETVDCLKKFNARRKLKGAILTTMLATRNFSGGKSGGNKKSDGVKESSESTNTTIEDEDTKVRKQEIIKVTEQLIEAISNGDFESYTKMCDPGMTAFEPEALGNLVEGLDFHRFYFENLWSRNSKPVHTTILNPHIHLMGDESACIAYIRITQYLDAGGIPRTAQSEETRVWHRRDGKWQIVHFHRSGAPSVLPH"}
{"SMILES": "COc1cc2cc(c1Cl)N(C)C(=O)C[C@H](OC(=O)C(C)C)[C@]1(C)O[C@@H]1[C@H](C)[C@@H]1C[C@@](O)(NC(=O)O1)[C@H](OC)/C=C/C=C(\\C)C2", "inhibition [%]": -15}
{"SMILES": "C[C@H]1CC[C@H]2[C@H](C)[C@@H]3CC[C@@H]4[C@@H](C[C@H]5[C@H]4C[C@@H](O)[C@H]4C[C@@H](O)CC[C@@]45C)[C@@H]3CN2C1", "inhibition [%]": 5}
{"SMILES": "C[N+]1(CC2CC2)[C@@H]2C[C@@H](OC(=O)[C@H](CO)c3ccccc3)C[C@H]1[C@@H]1O[C@@H]12 (some centres unmarked)", "inhibition [%]": 1}
{"SMILES": "CCCCCCCCCCCCCC(=O)O[C@@H]1[C@@H](C)[C@@]2(O)[C@@H](C=C(CO)C[C@]3(O)C(=O)C(C)=C[C@@H]23)[C@@H]2C(C)(C)[C@]12OC(C)=O", "inhibition [%]": -13}
{"SMILES": "CCN1C[C@@]2(COC)[C@H]3[C@@H](OC)[C@H]4[C@@H]1[C@]3([C@@H](OC)C[C@H]2OC(C)=O)[C@@H]1C[C@@]2(O)[C@H](OC(=O)c3ccccc3)[C@@H]1[C@]4(OC(C)=O)[C@@H](O)[C@@H]2OC", "inhibition [%]": 9}
{"SMILES": "O=C(CCCN1CCC(n2c(=O)[nH]c3ccccc32)CC1)c1ccc(F)cc1", "inhibition [%]": 3}
{"data": "Set 4", "target": "DNA polymerase theta, ATPase domain (POLQ, Homo sapiens, UniProt O75417)", "effect on": "enzyme activity", "action": "inhibitor", "concentration": "77 µM", "relative to": "untreated", "UniProt O75417, sequence (whole entry, unmodified, looked up)": "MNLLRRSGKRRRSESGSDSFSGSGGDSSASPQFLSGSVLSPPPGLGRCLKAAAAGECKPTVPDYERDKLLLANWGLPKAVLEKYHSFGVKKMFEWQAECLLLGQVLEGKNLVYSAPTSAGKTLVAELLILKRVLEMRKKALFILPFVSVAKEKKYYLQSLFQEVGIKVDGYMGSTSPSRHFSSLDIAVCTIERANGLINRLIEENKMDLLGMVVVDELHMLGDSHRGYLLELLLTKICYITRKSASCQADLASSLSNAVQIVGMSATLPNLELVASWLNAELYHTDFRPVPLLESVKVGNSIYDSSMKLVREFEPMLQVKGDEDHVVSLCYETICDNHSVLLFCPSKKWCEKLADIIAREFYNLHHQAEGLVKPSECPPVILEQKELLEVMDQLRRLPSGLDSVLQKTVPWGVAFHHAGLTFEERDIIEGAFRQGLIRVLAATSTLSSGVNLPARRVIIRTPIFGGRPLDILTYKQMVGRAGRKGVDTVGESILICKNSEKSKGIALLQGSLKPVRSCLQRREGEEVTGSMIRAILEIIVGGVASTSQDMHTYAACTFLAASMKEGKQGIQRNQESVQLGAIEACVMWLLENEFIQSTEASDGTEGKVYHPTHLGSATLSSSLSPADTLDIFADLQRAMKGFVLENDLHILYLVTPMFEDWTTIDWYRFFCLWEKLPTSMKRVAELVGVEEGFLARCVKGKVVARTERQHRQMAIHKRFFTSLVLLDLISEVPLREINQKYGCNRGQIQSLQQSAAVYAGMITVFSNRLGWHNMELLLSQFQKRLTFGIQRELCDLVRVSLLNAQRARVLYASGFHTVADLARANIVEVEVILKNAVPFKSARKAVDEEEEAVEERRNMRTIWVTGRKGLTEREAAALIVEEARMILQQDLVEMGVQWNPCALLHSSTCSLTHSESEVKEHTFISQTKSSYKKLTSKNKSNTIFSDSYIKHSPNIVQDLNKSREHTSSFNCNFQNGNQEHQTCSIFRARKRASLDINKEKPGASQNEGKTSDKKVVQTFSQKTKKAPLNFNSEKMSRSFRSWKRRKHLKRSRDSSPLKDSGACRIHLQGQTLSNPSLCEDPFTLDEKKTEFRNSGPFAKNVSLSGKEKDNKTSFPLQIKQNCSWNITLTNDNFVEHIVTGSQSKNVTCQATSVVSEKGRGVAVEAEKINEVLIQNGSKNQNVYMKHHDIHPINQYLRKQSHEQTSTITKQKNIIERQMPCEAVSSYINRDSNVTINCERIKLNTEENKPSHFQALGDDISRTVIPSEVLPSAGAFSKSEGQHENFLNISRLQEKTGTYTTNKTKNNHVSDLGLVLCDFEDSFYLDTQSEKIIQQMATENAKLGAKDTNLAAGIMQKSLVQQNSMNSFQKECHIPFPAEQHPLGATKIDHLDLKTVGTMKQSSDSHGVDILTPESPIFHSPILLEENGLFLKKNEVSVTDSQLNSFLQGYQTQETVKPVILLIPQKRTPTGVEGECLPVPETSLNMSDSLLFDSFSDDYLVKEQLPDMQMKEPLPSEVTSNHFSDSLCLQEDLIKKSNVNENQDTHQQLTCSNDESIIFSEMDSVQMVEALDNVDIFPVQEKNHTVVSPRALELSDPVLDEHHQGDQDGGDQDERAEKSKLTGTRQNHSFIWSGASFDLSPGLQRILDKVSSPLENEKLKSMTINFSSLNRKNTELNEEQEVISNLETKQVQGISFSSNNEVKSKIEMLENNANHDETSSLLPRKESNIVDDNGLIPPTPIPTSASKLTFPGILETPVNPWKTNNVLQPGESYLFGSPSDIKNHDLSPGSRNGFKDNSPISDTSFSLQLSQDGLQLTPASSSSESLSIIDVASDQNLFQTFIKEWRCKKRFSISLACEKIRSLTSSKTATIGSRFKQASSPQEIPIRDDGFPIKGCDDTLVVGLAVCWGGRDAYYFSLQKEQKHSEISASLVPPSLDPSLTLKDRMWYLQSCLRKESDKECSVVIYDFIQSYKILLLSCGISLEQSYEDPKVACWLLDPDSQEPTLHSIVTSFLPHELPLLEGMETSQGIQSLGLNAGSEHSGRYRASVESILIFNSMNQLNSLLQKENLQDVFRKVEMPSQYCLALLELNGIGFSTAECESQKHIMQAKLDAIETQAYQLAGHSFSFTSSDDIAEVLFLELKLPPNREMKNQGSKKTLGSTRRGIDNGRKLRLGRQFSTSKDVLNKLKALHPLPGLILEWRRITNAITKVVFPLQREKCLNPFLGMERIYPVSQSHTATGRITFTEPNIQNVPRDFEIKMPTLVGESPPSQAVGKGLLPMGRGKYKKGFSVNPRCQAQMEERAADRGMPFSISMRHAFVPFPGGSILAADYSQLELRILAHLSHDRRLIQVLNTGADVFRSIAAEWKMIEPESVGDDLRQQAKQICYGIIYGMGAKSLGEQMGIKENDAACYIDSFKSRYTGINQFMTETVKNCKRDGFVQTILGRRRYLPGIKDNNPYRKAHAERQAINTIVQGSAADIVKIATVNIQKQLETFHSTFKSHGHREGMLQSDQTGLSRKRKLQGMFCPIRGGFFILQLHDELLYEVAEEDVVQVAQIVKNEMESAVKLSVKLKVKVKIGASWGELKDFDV"}
{"Structure (SMILES)": "c1ccc2c(N3CCNCC3)cccc2c1", "remaining activity": "96.5%"}
{"Structure (SMILES)": "CC(C)Oc1cccnc1N(C)C1CCN(Cc2ccccc2)CC1", "remaining activity": "95.5%"}
{"Structure (SMILES)": "O=S(=O)(c1c(O)c(Cl)cc(Cl)c1Cl)c1c(O)c(Cl)cc(Cl)c1Cl", "remaining activity": "106%"}
{"Structure (SMILES)": "C=C(C)[C@H]1Cc2c(ccc3c2O[C@@H]2COc4cc(OC)c(OC)cc4[C@@H]2C3=O)O1", "remaining activity": "91.2%"}
{"Structure (SMILES)": "c1ccc2sc(C3(N4CCCCC4)CCCCC3)cc2c1", "remaining activity": "99.8%"}
{"note": "A few entries again (set 3):"}
{"SMILES": "CCCCCCCCCCCCCC(=O)O[C@@H]1[C@@H](C)[C@@]2(O)[C@@H](C=C(CO)C[C@]3(O)C(=O)C(C)=C[C@@H]23)[C@@H]2C(C)(C)[C@]12OC(C)=O", "inhibition [%]": -13}
{"SMILES": "O=C(CCCN1CCC(n2c(=O)[nH]c3ccccc32)CC1)c1ccc(F)cc1", "inhibition [%]": 3}
{"SMILES": "COc1cc2cc(c1Cl)N(C)C(=O)C[C@H](OC(=O)C(C)C)[C@]1(C)O[C@@H]1[C@H](C)[C@@H]1C[C@@](O)(NC(=O)O1)[C@H](OC)/C=C/C=C(\\C)C2", "inhibition [%]": -15}
